Measured values from different studies.
Protocols differ between the studies behind these lines. Several values in a cell are separate wells, animals, samples, runs or records. Numbers after ± are the reported error.

The inhibition of `CCOC(=O)C1(Cc2cccc(C(C)C)c2)Oc2cc(F)ccc2N(Cc2cccc(C(C)C)c2)C1=O` (stereo not drawn) is reported as 29.4% (Arabidopsis thaliana; stem length, petri dish germination; Col-0, 1/2 MS medium; 200 µg/mL, 7 days, 22 °C, dark).
The cytokine level of `CC(C)C[C@@H]1NC(=O)[C@@H](Cc2c[nH]c3ccccc23)NC(=O)[C@H](CCCNC(=N)N)NC(=O)[C@@H](CCC(=O)O)NC(=O)[C@H](CCC(N)=O)NC(=O)[C@@H](CCC(=O)O)NC(=O)[C@H](CCCNC(=N)N)NC(=O)[C@@H](Cc2c[nH]c3ccccc23)NC1=O` is reported as 77 ± 21 pg/g tissue (Luminex, item: TNFa; LDLr-/- mice, Western diet, liver; dose not given, 4 weeks).
The relative abundance of `COc1ccccc1-c1n[nH]c2nc(NC3CCN(C(=O)Cc4ccc(F)cc4F)CC3)ncc12` is reported as 0.78 (bead binding, competition bead pull-down, item: LINJ.34.2410; Leishmania donovani extract; 10 µM; reference: vehicle).
`Cc1cc(C(=O)Nc2nc3cccc(C)c3n2[C@H]2CCCCN(C(=O)/C=C/CN(C)C)C2)ccn1`: “EC50 fold shift” 0.73 fold and 0.62 fold (Trypanosoma brucei; cell growth, Alamar Blue; 2T1 overexpressing Tb927.4.5310; reference: parental 2T1).
For `CC(C)(C)C(=O)OCOP(=O)(OCOC(=O)C(C)(C)C)C1CCCN(O)C1=O` (stereo not drawn), the GI50 was 1550 nM (SK-MEL-2).
The normalised growth of `Cc1cc(Oc2nc(N3CC[C@@H](c4ccncc4)C3)ncc2F)[nH]n1` is reported as 101% and 98% and 104% (Mycobacterium tuberculosis; OD; H37Rv PurF CRISPRi knockdown; 6.1e-05 µM, with: anhydrotetracycline low).
For `COc1ccccc1-c1n[nH]c2nc(N[C@H]3CC[C@H](NS(=O)(=O)CC(C)C)CC3)ncc12`, the relative abundance was 0.71 (bead binding, competition bead pull-down, item: LINJ.31.1230; Leishmania donovani extract; 10 µM; reference: vehicle).
With `CC(C)CC(C(=O)N1CC2(CC1C#N)C(=O)Nc1ccccc12)N(C)C(=O)c1cc2c(F)cc(F)c(F)c2[nH]1` (stereo not drawn) the inhibition was 89% (Betacoronavirus 1; viral replication; HCT-8, OC43; 0.125 µM).
For `Cc1ccc(NS(=O)(=O)c2c(C(=O)N3CCCCCC3)c(C)n(C)c2C)c(Cl)c1`, the infection was 107% and 76.9% and 96.2% (Fowlpox virus; viral infection; CEF; 3.704 µM; reference: untreated).

A few entries again:
The normalised growth of `Cc1cc(Oc2nc(N3CC[C@@H](c4ccncc4)C3)ncc2F)[nH]n1` is reported as 101% and 98% and 104% (Mycobacterium tuberculosis; OD; H37Rv PurF CRISPRi knockdown; 6.1e-05 µM, with: anhydrotetracycline low).
